Results pooled from the literature.
Every numbered part comes from another study and shows a few of its results, in no order. Substitutions count along the parent as printed.

Sample 1 — method: RNAcompete; molecule type: RNA; sample: in vitro; tested at: 20 nM; setting: 7-mer, probes averaged, single round; reference: mean of 7-mers; direction: higher = stronger binding; quantity: 7-mer Z-score
Target: PABPC1L2, full length, GST fusion (mouse, UniProt A0ABA7IW68)
Target sequence (chain): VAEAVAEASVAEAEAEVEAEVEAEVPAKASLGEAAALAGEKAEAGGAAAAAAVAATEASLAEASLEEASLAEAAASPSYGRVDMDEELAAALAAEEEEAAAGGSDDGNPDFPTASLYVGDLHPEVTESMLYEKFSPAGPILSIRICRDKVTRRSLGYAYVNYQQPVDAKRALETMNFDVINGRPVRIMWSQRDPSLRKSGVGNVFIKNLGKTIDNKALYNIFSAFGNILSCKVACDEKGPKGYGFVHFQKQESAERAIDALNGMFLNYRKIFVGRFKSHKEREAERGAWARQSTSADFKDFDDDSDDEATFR
AGGCCGG: 0.0116
UCAAUCU: -0.117
AAAUGUG: 0.916
GUCUUGG: -0.193
AUGCUAU: -0.117
ACCAUCG: -0.318
UCUGAGA: -0.0772
UUGUCAA: -0.32
CUCGUCC: -0.505
AAUACCA: 0.345
GCCGCAU: -0.186
AGCUACU: -0.222
UUAUACC: -0.291
AAUUGAC: 0.22
CUCGCCU: -0.354
UCUCUAG: -0.347
UCAGCGG: 0.0116
CUCCAAU: -0.193
UAUAAAU: 2.22
UAUUGGG: 0.204
AAACUAG: 0.655
AGCACAA: 0.256
AUACAUU: 0.037
CAGGACC: 0.16
UGACCAU: -0.0699

Sample 2 — method: protein binding microarray; molecule type: double-stranded DNA, one strand shown; sample: in vitro; tested at: not given; reference: not given; direction: higher = stronger binding; quantity: E-score
Target: Histone acetyltransferase KAT6A, winged helix 2, GST fusion (KAT6A, Homo sapiens, UniProt Q92794, residues 85-181)
Setting: 8-mer, flanks averaged, mean of 2 arrays, mostly near background
Construct (chain): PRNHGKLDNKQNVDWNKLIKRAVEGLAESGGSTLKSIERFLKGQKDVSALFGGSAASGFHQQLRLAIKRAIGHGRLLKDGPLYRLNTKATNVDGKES
ATCGAAAT: -0.0773
GTCCAGGA: -0.067
GCTCTCCC: 0.0928
CGCATATC: 0.0947
ATATAGCG: -0.164
GGTAACGA: -0.139
ATGATGAC: -0.117
TGAGGAAA: -0.0273
CGACAGCG: 0.0723
CTCTATGA: 0.071
GACCATTA: -0.0923
GTGGTCTA: -0.123
TCTAGGCA: -0.0694
CGAATCAG: 0.0203
GAAGCTCC: 0.0226
GGTTCCGA: 0.0884
AGGCCCAT: -0.0685
ACTGGACA: -0.0766
TCGGGTAA: -0.103
AAGCCCGC: 0.134
CAGAAATC: 0.0377
CTACGTCC: -0.122
GCGTTTCA: 0.0396
CTGTTATA: -0.0572
ATATGAGG: -0.209

Sample 3 — method: protein-binding microarray; molecule type: double-stranded DNA, one strand shown; sample: in vitro; tested at: 2540 nM top; setting: 60-bp whole probe; with: salmon DNA 0.4 mg/ml; reference: random background probes; direction: higher = stronger binding; quantity: fitted relative affinity; all sequences stand within: GCCTAGCAC … GTCTTGATTCGCTTGACGCTGCTG
Target: Interferon regulatory factor 3, full length, phosphomimetic (IRF3, Homo sapiens, UniProt Q14653, residues 1-427, S386D/S396D/S398D/S402D/T404D/S405D)
Chain of UniProt Q14653 (whole entry, unmodified, looked up): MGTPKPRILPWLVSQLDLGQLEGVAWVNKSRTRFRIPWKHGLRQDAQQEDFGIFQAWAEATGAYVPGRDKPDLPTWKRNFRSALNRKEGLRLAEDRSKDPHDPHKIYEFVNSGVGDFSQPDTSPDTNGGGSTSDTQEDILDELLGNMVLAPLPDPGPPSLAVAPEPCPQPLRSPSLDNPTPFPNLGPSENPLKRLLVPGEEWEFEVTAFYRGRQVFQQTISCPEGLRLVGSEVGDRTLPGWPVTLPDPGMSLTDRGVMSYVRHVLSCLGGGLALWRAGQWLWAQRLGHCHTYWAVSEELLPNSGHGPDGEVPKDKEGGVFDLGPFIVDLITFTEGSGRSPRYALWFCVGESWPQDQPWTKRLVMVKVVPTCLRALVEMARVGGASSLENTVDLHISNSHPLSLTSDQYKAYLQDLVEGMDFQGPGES
TTAGAACTGAGACTGGACTAGTGCTAG: -0.478 z-score
GACGATTTCAGTTCCGAGAGGTGCTAG: 2.92 z-score
TTGTTTTTCATCATTGCCTAGTGCTAG: 1.09 z-score
TTAGGGCTGCTTATCCTTTAGTGCTAG: -0.514 z-score
TCATGTATGGATGTGTTACTGTGCTAG: -0.25 z-score
GACGCTCTCCTTTTCCTGACGTGCTAG: 3.51 z-score
TTAGATATCAGTCTCAATTAGTGCTAG: 1.26 z-score
TTAGGACTGGACACTAGGTTAGTGCTA: -0.659 z-score
GAGGGTATCCTTATCCTGACGTGCTAG: 3.65 z-score
GGACGGCAGTGCACACAGTGGTGCTAG: -0.683 z-score
ATTGCTTCCTCTTTACTGCTGTGCTAG: 1.04 z-score
TTAGAACTTAGACTGGATTAGTGCTAG: -0.612 z-score
TATATTATATATTTATGTATGTGCTAG: 0.519 z-score
GACAGTCTCCTTATCCTGACGTGCTAG: 3.46 z-score
TCATATATTTTAATCACACTGTGCTAG: 0.499 z-score
AATCATTTTCGTTTTTATTAGTGCTAG: 6.43 z-score
CTGTTTTTGCTTTCCTTCATGTGCTAG: 3.22 z-score
TTAGGATTCCTTTTCCTTTAGTGCTAG: 6.93 z-score

Sample 4 — method: RNA Bind-n-Seq; molecule type: RNA; sample: in vitro; tested at: not given; reference: input RNA pool; direction: higher = stronger binding; quantity: bound/input enrichment
Target: RING finger protein unkempt homolog, zinc fingers 1-6, GST-SBP tag (UNK, Homo sapiens, UniProt Q9C0B0, residues 30-357)
Chain of UniProt Q9C0B0 (30-357, looked up): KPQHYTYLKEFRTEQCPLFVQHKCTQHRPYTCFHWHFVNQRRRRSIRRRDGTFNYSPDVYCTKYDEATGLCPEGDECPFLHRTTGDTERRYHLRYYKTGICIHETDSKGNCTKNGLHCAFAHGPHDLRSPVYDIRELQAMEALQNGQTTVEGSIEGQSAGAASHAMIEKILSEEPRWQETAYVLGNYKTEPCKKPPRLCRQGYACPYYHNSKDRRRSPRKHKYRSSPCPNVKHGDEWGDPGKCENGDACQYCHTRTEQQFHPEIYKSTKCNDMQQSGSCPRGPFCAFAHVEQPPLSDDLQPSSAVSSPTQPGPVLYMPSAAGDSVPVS
Setting: RNA with constant flanks, human-mouse chimeric sites, ends assumed
All sequences stand within: GGGAGUUCUACAGUCCGACGAUC … CAACAGAGGAUUGAGCAUCA
CCUCUGCUUCCGCACUCAGCCUGGGGACACUGGGCUGGGACCAGAAUCCAGCUUUCUUUUAAAACUCUCAGUGUAACUGUAUCCCGUGACAUUUCAUUUUUUUUAAAUAGUGUAUUUUUU: 3.44 ratio
AGAAUCUUGGGACUGUUUUACUUAAUUGGUCAUUGAUAGCUUAACAAACAUGGAGAUGAGAUUAGAAGUUUUGACAUCAACAGGUAUUAAGCAGAAAAAACCAUGGCCACGUGUCUCCUG: 0.23 ratio
GAUCAUGGAACCAGAAUAGAAAUGAAGAUGAGAUUACCCAGACGAGCCAAAACAGCUGCGCUACAGAAAAGUAAACUUAACCUUGCAGAGUUCCUUAAUGAAGAUACAAGUUAAGAGAGC: 1 ratio
AGCACAACCCCAGCAAAGCUAAGAAAUCCUUGCACAAGUGAACAGAACUGCACCAGCCCAUUUAGCUACAAAAAUGUGCUUAGUCUUACUGACAGAGGAGAGUUUUUCAAUGAACUUGUU: 1.44 ratio
GACUUUGGGACUGGUCCUCGCAACGCAGCCUACUAUAGCCCUCAUGGACAUAUAUUAGUGCUGGCUGGAUUUGGAAAUCUUCGAGGACAAAUGGAAGUAUGGGAUGUGAAAAACUACAAG: 0.362 ratio
GGAAGUACAUUAAUGGAGAUUGAUGGUGACAAAGGCAAGCAGGGCGGGCCCACCUACUACAUAGACACCAAUGCCCUCCGCGUGCCCAGGGAGAAUAUGGAGGCCAUCUCACCACUCAAG: 0.241 ratio
CUGUGUGUGCUGAAUAAAUGGCUUGUAAAGAAGUUUUCCAAGUUGUAAACCCAUGCUGUUAUUAUAGUUGCUGCAAAAUGUCUCUUAUGAUAUUGAUUUUAUUUGUUAACUGAAGGUCUC: 0.418 ratio

Sample 5 — method: DHFR PCA, deep sequencing; sample: yeast; with: (+)-ABA 200 µM; reference: wild-type fitted maximum; direction: higher = stronger binding; quantity: relative binding score
Target: ABI1, truncated, D143A, DHFR fusion (Arabidopsis thaliana)
Setting: methotrexate growth selection, single substitutions
Parent: PYL1, truncated, DHFR fusion (Arabidopsis thaliana); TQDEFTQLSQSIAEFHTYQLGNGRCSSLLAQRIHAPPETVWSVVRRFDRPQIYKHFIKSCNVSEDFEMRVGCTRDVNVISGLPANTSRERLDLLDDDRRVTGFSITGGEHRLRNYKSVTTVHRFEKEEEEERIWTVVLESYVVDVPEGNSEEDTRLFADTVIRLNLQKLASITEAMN; partner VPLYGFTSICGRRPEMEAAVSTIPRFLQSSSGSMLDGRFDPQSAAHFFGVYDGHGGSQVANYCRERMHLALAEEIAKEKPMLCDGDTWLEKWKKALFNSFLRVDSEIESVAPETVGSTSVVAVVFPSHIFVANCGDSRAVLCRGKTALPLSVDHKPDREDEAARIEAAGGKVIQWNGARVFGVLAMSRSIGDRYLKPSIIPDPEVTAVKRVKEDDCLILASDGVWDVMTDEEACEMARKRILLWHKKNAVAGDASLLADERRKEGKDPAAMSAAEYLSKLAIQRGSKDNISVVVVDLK
C60L: 69.3%
E67V: 103%
K126I: 98.5%
W41L: -10.1%
A35K: 40.4%
I172K: 77.7%
R98K: 120%
E152V: 93.7%
L138C: 76%
S171A: 102%
E89D: 53.8%
Q7M: 104%
I172C: 86.5%
S63T: 101%
E152P: 73.3%
R46I: 60.1%
T86G: 101%
P146I: 25.6%
G148K: 74.4%
V40S: -0.142%

Sample 6 — method: universal PBM; molecule type: double-stranded DNA, one strand shown; sample: in vitro; tested at: 600 nM; direction: higher = stronger binding; quantity: E-score
Target: Sal-like protein 4, full length isoform A (SALL4, Homo sapiens, UniProt Q9UJQ4, residues 1-1053)
Chain of UniProt Q9UJQ4 (whole entry, looked up): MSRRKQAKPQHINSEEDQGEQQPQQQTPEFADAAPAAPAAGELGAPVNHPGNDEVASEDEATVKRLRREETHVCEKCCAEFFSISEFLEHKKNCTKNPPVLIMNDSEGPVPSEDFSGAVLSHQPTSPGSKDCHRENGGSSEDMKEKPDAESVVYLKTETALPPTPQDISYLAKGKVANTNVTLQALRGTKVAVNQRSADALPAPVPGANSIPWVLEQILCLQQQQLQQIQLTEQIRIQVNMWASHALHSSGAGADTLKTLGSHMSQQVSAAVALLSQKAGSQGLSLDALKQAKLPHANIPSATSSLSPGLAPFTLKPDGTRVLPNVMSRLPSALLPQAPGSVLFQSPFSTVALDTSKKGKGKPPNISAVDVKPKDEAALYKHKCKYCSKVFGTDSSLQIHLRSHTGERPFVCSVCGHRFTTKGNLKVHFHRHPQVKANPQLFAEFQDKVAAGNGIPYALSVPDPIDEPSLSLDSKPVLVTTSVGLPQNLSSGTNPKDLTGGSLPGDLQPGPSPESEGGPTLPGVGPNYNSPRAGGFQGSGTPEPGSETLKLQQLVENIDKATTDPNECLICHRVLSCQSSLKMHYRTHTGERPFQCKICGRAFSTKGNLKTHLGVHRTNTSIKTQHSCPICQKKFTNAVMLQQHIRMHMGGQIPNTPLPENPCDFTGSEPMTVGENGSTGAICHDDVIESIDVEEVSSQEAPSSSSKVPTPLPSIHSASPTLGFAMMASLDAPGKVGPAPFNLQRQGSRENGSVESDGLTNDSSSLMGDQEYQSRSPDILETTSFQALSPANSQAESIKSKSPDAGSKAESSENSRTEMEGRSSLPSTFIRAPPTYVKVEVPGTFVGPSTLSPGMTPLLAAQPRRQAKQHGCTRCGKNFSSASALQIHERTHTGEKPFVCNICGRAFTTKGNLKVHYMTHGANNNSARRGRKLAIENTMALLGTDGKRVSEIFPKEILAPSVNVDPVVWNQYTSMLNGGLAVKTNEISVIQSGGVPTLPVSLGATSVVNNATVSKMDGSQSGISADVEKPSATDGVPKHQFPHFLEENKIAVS
Setting: 8-mer, flanks averaged, mean of replicates
CCGGCAGA: -0.349
AACGGTTC: -0.16
CAGTATGG: -0.0507
AAGCCGAA: 0.0145
CGGTACCA: -0.154
ATCGTCAG: 0.0574
CGCGCGCC: -0.261
ACCAAGAG: -0.128
AAAGAATT: 0.212
GAAAAGAA: 0.0836
AGGAGAGG: -0.0449
GTCTACCA: -0.0662
ATGCGCTC: -0.0182
AAGAACCA: 0.0895
GCACTTAC: -0.0765
ATTAGCAG: 0.0684
GGTAGAAC: -0.117
GGCGGTGA: -0.0657
AATGTAAT: 0.321
TAGGTTCA: 0.0277
GGCGACCA: -0.282
GGTAGTGA: -0.145
CACAAACA: 0.219
ACCAGCGA: -0.239
CTAGTATC: 0.031

Some of these lines once more (sample 5):
E67V: 103%
K126I: 98.5%
W41L: -10.1%
A35K: 40.4%
I172K: 77.7%
R98K: 120%
E152V: 93.7%
L138C: 76%
S171A: 102%
E89D: 53.8%
Q7M: 104%
I172C: 86.5%
S63T: 101%
E152P: 73.3%
R46I: 60.1%
T86G: 101%
P146I: 25.6%
